Measurements from different studies.
Every numbered part comes from another study and shows a few of its results, in no order.
Sequence of UniProt Q9NRM7 (whole entry, looked up): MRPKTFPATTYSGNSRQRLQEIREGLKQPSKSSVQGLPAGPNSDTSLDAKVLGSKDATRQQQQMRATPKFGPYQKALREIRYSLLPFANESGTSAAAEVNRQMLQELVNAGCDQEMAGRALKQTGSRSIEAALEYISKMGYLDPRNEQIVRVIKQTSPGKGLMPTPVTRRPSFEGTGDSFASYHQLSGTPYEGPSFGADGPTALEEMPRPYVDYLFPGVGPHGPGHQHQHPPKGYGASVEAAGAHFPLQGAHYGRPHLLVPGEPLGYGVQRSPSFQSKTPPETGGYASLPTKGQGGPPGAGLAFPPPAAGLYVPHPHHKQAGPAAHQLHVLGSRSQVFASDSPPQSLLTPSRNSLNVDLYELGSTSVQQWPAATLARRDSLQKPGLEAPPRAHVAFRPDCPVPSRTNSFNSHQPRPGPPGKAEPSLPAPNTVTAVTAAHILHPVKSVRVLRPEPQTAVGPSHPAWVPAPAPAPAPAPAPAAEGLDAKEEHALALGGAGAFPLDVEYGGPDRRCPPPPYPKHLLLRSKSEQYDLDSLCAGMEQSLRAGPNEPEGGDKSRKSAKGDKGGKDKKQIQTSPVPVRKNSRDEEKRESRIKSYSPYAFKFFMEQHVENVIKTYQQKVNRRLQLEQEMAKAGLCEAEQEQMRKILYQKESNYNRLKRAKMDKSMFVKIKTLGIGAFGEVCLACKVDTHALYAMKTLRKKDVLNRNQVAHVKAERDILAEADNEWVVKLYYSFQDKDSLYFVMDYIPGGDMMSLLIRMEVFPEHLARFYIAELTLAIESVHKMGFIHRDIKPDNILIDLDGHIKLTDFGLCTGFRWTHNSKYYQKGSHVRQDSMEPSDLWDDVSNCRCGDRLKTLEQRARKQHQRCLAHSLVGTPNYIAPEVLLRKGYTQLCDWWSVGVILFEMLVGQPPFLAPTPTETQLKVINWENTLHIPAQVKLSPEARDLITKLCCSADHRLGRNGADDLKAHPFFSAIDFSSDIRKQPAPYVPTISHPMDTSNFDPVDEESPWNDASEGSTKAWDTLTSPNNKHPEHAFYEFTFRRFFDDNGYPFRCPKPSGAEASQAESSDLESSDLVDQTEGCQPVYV
Sequence of UniProt Q99558 (whole entry, looked up): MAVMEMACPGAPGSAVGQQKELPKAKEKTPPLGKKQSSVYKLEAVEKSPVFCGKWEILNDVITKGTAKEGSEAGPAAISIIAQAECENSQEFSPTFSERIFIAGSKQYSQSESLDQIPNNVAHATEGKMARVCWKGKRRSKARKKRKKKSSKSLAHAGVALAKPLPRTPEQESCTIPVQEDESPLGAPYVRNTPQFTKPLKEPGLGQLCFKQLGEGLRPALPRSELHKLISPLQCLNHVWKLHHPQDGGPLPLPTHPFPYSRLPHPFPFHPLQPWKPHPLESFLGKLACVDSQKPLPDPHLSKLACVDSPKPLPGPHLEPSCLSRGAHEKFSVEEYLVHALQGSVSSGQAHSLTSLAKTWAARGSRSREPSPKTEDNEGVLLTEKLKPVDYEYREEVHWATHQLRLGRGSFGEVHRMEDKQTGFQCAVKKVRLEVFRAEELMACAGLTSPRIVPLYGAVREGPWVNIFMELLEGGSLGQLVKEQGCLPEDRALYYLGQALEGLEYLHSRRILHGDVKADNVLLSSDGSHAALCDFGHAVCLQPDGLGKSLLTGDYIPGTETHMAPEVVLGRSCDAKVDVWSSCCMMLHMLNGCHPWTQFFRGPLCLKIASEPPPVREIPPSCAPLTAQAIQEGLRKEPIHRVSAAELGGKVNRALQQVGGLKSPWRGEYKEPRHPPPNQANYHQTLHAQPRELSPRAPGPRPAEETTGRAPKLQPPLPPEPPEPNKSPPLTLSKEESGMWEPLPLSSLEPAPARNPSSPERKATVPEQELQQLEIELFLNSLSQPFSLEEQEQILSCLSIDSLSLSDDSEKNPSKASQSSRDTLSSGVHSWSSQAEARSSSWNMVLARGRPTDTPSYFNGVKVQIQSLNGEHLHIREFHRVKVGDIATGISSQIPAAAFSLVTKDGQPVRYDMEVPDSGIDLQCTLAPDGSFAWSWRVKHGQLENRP
Sequence of UniProt Q9Y2I7 (whole entry, looked up): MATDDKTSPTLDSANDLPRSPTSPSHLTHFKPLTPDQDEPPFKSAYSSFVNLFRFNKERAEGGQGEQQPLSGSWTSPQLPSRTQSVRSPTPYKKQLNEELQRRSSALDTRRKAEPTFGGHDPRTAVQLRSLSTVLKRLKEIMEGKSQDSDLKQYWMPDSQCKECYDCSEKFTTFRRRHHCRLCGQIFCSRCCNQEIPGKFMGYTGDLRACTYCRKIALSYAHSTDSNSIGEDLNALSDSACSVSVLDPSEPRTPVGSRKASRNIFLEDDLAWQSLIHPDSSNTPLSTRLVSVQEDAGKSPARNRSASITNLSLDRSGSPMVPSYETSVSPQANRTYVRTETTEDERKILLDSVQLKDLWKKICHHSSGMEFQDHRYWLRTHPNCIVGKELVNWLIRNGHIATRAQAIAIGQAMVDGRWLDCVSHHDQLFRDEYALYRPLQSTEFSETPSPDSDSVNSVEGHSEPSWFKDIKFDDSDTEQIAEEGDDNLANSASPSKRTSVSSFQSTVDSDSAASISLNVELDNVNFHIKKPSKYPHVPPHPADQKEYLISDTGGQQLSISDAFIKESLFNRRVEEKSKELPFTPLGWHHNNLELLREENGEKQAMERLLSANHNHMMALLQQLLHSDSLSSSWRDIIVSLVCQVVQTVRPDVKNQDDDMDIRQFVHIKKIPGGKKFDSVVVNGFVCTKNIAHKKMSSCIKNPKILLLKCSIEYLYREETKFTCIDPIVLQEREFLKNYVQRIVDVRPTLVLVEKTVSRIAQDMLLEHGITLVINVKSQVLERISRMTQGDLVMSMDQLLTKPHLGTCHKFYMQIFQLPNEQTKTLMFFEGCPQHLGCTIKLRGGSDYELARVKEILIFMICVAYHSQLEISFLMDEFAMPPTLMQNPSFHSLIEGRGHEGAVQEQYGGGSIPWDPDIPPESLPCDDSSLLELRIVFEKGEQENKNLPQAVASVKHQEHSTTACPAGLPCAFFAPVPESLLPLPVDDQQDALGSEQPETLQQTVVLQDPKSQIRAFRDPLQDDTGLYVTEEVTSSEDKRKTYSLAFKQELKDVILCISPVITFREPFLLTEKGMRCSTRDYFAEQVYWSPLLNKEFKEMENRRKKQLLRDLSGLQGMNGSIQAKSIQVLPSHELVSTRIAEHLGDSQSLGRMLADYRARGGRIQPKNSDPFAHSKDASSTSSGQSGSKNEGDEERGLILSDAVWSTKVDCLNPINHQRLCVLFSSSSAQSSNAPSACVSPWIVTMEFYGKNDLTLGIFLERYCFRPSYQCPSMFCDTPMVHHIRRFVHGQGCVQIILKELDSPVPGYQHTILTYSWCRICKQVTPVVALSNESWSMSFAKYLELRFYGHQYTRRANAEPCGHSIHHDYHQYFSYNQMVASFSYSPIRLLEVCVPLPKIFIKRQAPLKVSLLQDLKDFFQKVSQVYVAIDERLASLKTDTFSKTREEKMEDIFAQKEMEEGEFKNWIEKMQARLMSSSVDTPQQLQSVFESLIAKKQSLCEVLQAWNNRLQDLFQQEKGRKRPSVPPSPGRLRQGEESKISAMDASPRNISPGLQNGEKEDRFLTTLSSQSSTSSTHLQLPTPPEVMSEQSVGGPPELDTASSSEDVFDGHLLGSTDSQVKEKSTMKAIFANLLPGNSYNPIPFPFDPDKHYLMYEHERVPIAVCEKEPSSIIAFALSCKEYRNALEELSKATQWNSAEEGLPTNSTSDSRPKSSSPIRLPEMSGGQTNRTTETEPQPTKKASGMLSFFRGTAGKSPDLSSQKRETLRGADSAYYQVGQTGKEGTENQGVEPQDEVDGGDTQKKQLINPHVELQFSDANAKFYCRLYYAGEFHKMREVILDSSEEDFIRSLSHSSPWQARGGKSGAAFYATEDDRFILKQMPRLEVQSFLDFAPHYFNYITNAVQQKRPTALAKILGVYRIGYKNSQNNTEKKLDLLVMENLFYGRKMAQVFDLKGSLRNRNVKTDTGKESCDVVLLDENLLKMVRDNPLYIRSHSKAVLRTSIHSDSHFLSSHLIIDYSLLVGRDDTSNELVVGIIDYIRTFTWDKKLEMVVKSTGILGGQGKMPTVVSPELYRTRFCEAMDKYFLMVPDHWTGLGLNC
Sequence of UniProt O76039 (whole entry, looked up): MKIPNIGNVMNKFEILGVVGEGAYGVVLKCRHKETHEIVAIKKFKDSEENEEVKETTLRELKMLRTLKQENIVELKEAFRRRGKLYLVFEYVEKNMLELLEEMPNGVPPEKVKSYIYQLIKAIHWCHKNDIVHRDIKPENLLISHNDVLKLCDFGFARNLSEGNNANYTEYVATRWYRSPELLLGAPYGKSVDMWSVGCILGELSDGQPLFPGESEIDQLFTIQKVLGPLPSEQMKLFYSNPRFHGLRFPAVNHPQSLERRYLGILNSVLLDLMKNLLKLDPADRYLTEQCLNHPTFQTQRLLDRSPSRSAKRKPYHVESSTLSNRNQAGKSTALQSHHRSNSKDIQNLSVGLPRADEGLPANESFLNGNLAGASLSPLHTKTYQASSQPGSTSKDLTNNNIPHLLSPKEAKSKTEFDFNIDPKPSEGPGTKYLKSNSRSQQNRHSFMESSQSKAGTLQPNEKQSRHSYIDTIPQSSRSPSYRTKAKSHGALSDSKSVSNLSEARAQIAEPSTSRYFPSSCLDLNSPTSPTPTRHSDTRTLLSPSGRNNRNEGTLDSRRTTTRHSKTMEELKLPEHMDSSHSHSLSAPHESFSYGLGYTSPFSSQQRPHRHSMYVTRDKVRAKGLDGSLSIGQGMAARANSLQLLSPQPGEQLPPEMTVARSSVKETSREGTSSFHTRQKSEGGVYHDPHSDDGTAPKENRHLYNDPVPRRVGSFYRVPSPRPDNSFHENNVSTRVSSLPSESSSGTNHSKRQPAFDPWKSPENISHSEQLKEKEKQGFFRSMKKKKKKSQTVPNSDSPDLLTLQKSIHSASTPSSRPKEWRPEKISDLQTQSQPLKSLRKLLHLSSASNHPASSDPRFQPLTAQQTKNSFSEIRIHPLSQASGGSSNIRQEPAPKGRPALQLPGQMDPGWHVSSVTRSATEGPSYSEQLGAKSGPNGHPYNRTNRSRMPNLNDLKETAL

Block 1 — technique: protein-binding microarray; molecule type: double-stranded DNA, one strand shown; matrix: in vitro; concentration: 250 nM; notes: 60-bp whole probe; with: salmon DNA 0.4 mg/ml; relative to: random background probes; reading: higher = stronger binding; constant ends, left off below: GCCTAGCAC … GTCTTGATTCGCTTGACGCTGCTG
Target: Interferon regulatory factor 5, full length, phosphomimetic (IRF5, Homo sapiens, UniProt Q13568-2, residues 1-514, K96S/S451D/S453D/S456D/S462D)
| Strand | log fluorescence [z-score] |
| --- | --- |
| GACGGTATCGACTTCCGGGACGTGCTA | 2.47 |
| TCACCTCTAGACTCTAAAACTGTGCTA | 0.456 |
| TCACCTTTATGTCCTGTACTGTGCTAG | 0.445 |
| TTAGGTTCCCTTTTCATTTAGTGCTAG | 1.01 |
| TTAGCTTTCGGTTCCGGTTAGTGCTAG | 10.8 |
| TTAGATTTCAGTTTCGAATAGTGCTAG | 7.76 |
| TTAGATCTCGGTTTCGATTAGTGCTAG | 8.15 |
| GACGGACTGCTTTTCCTGTCGTGCTAG | 0.211 |

Block 2 — technique: aptamer microarray, sandwich; molecule type: DNA with 2'F-ANA; matrix: in vitro; concentration: 200 nM; with: Cy3 exosite-II aptamer, 400 nM; reading: higher = stronger binding; strand: GGTTGGTGTGGTTGG
Target: Prothrombin, mature alpha-thrombin (F2, Homo sapiens, UniProt P00734)
Notes: whole 15-mer aptamer, many near background
| Modification | mean fluorescence intensity [a.u.] |
| --- | --- |
| 2'F-ANA at 3 7 8 9 11 12 14 15 | 704 |
| 2'F-ANA at 1 3 4 5 6 7 8 10 11 15 | 49.7 |
| 2'F-ANA at 1 2 4 5 6 7 12 14 15 | 48.3 |
| 2'F-ANA at 2 3 4 5 7 9 11 12 14 15 | 61.7 |
| 2'F-ANA at 4 6 9 10 11 12 14 | 62.9 |
| 2'F-ANA at 8 9 15 | 609 |
| 2'F-ANA at 1 3 7 11 13 15 | 269 |
| 2'F-ANA at 4 5 6 9 10 11 12 | 50.4 |

Block 3 — Compound: CC(C)(O)c1cncc(-c2nc3ccc(F)cc3n2C2CC2)c1; effect on: cell-free assay; technique: competition with immobilised ligand; concentration: 1 µM
| target | remaining binding |
| --- | --- |
| EGFR (Homo sapiens, UniProt P00533, G719S) | 100% |
| PRKG1 (Homo sapiens, UniProt Q13976) | 78% |
| EGFR (Homo sapiens, UniProt P00533, del752-759) | 100% |
| CSNK1A1 (Homo sapiens, UniProt P48729) | 84% |
| Tyrosine-protein kinase ABL1, phosphorylated (ABL1, Homo sapiens, UniProt P00519, M351T) | 100% |
| PIK3C2B (Homo sapiens, UniProt O00750) | 95% |
| Tyrosine-protein kinase ABL1, non-phosphorylated (ABL1, Homo sapiens, UniProt P00519) | 98% |
| CDKL1 (Homo sapiens, UniProt Q00532) | 100% |
| MET (Homo sapiens, UniProt P08581) | 100% |
| LATS2 (Homo sapiens, UniProt Q9NRM7) | 100% |
| PIKFYVE (Homo sapiens, UniProt Q9Y2I7) | 99% |
| MAP3K14 (Homo sapiens, UniProt Q99558) | 100% |
| CDKL5 (Homo sapiens, UniProt O76039) | 100% |
| MYLK (Homo sapiens, UniProt Q15746) | 80% |
| HIPK1 (Homo sapiens, UniProt Q86Z02) | 97% |

Further values, each from its own experiment
| SMILES | target | test | conditions | quantity | result |
| --- | --- | --- | --- | --- | --- |
| COc1cc2nccc(Oc3ccc(NC(=S)NC(=O)c4ccccc4C)cc3)c2cc1OC | Myosin-IIIb (MYO3B, Homo sapiens, UniProt Q8WXR4) | enzyme activity, inhibitor | 0.5 µM | remaining activity | 83.4% |

For quick reference, copied from above (block 2):
| Modification | mean fluorescence intensity [a.u.] |
| --- | --- |
| 2'F-ANA at 1 3 4 5 6 7 8 10 11 15 | 49.7 |
| 2'F-ANA at 1 2 4 5 6 7 12 14 15 | 48.3 |
| 2'F-ANA at 2 3 4 5 7 9 11 12 14 15 | 61.7 |
